Measurements from different studies.
A part holds a random share of what one study measured. Substitutions count along the parent as printed.

Sample 1
Target: UBE2I UBC core domain (UniProt P63279)
Technique: yeast two-hybrid
Matrix: yeast
Notes: mostly zero background
Relative to: not given
Direction: higher = stronger interaction
B1: VPS8 RING domain (UniProt Q8N3P4); chain TRGLNPKQDYCSICLQQYKRRQEMADEIIVFSCGHLYHSFCLQNKECTVEFEGQTRWTCYKCSSSNKVGKLSE
B2: RNF186 RING domain (UniProt Q9NXI6); chain HSGSTECDLECLVCREPYSCPRLPKLLACQHAFCAICLKLLLCVQDNTWSITCPLCRKVTAVPGGLI
B3: TRIM11 RING domain (UniProt Q96F44); chain LSTNLQEEATCAICLDYFTDPVMTDCGHNFCRECIRRCWGQPEGPYACPECRELSPQRNLRP
B4: MARCHF1 RING domain (UniProt Q8TCQ1); chain TAPRSQSRLSVCPSTQDICRICHCEGDEESPLITPCRCTGTLRFVHQSCLHQWIKSSDTRCCELCKYDFIMETKLKPLRKWE
Molecule | lacZ reporter activity
B1 (VPS8 RING domain) | 0
LVKDFNPYITCYICKGYLIKPTTVTECLHTFCKTCIVQHFEDSNDCPRCGNQVHETNPLE (PCGF5 RING domain (UniProt Q86SE9)) | 0
B2 (RNF186 RING domain) | 0
DDVLTKDAGECVICLEELLQGDTIARLPCLCIYHKSCIDSWFEVNRSCPEHPAD (ZNRF1 RING domain (UniProt Q8ND25)) | 0
B3 (TRIM11 RING domain) | 0
EIKEYKARLTCPCCNTRKKDAVLTKCFHVFCFECVRGRYEARQRKCPKCNAAFGAHDFHR (RNF40 RING domain (UniProt O75150)) | 0
B4 (MARCHF1 RING domain) | 0

Sample 2
Target: Interferon regulatory factor 5, full length, phosphomimetic (IRF5, Homo sapiens, UniProt Q13568-2, residues 1-514, K96S/S451D/S453D/S456D/S462D)
Technique: protein-binding microarray
Molecule type: double-stranded DNA, one strand shown
Matrix: in vitro
Concentration: 250 nM
Notes: 60-bp whole probe
Added: salmon DNA 0.4 mg/ml
Relative to: random background probes
Direction: higher = stronger binding
Constant ends, left off below: GCCTAGCAC … GTCTTGATTCGCTTGACGCTGCTG
Sequence | log fluorescence [z-score]
TTAGCACTGAGACTGGATTAGTGCTAG | -0.0688
TTAGGACTGGGACTGCGTTAGTGCTAG | -0.575
GACGGTTTCCTATTCCTGACGTGCTAG | 0.826
TTAGATTTCAGTTTCGATTAGTGCTAG | 10.3
ATAGAACTGGGGTATCGATTAGTGCTA | 2.45
TCATAACTCATTTTCATACTGTGCTAG | 1.6
GACGGTATCCTTTTCTTGACGTGCTAG | 0.463

Further values, each from its own experiment
P1: E2F7 docking peptide (human); SSAQRRLEIPSGG; partner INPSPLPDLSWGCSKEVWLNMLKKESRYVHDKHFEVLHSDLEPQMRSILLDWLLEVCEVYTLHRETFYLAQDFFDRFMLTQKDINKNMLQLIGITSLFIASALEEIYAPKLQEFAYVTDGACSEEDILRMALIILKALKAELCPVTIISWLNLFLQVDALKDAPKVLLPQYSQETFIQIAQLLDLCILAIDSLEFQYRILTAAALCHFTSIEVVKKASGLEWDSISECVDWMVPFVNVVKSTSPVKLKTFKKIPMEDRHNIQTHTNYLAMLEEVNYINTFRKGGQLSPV
Substance | tested on | test | system | conditions | scale | endpoint | result
P1 I9A | CCNE2, cyclin fold, Cln2 fusion (human) | yeast growth competition, sequencing | yeast | weak parent motif | relative to: not given, higher = stronger binding | normalised enrichment score | 0.409
NSMCE1 (Homo sapiens, UniProt Q8WV22) | NSMCE3 (Homo sapiens, UniProt Q96MG7) | cross-linking MS | – | hits only | – | interaction screen | cross-linked

Some of these lines once more (sample 2):
Sequence | log fluorescence [z-score]
TTAGCACTGAGACTGGATTAGTGCTAG | -0.0688
TTAGGACTGGGACTGCGTTAGTGCTAG | -0.575
GACGGTTTCCTATTCCTGACGTGCTAG | 0.826
